# Measured values gathered from unrelated publications.
# Lines come from different studies, so protocols differ. Numbers after ± are the reported error.
SMILES,cell line,test,conditions,CC50 [µM]
O=S(=O)(c1cccs1)N1CCCCN2[C@H](CO)[C@@H](c3ccc(/C=C/c4ccccc4)cc3)[C@@H]2C1,"HEp-2, uninfected",,,> 100
CN(C)c1ccc(/C=c2/c3cc(O)ccc3n3c2cc(-c2ccccc2)[n+]3C)cc1,HepG2 cells,cell viability,24 h,19.3
OC(c1cc(C(F)(F)F)nc2c(C(F)(F)F)cccc12)C1CCCCN1 (stereo not shown),"Vero E6, uninfected",cytotoxicity,72 (unit not given),8.78
O=C(C[n+]1ccc2ccccc2c1)c1ccc2ccc3ccccc3c2c1,HepG2 cells,cell viability,24 h,14
Cc1cccc(-c2ccc([C@@H]3[C@@H](CO)N4CCCCN(S(=O)(=O)c5cn(C)cn5)C[C@@H]34)cc2)c1,"HEp-2, uninfected",,original sample,54
CCCN(CCC)C(=S)NN=Cc1ccccn1.[Cl][Cu][Cl],HepG2 cells,cell viability,24 h,< 1.56
O=S(=O)(O)C(F)(F)C(F)(F)C(F)(F)C(F)(F)C(F)(F)C(F)(F)C(F)(F)C(F)(F)F,BeWo,,"24 h, vehicle co-incubation",725 ± 56.8
CC(=NNC(=S)N1CCCCCC1)c1ccccn1,HepG2 cells,cell viability,24 h,5.73
C[C@@H]1[C@H](O)[C@@H](C)/C=C/C=C/C=C/C=C/C=C/C=C/C=C/[C@H](O[C@@H]2O[C@H](C)[C@@H](O)[C@H](N)[C@@H]2O)C[C@@H]2O[C@](O)(C[C@@H](O)C[C@@H](O)[C@H](O)CC[C@@H](O)C[C@@H](O)CC(=O)O[C@H]1C)C[C@H](O)[C@H]2C(=O)O,J774A.1,alamarBlue,,≥ 200
CCCCCCNC(=O)n1cc(F)c(=O)[nH]c1=O,RD,,"3 (unit not given), 33 °C, together with: MgCl2 30 mM",18.5
COc1ccc2c3c([nH]c2c1)[C@H](CO)N(Cc1ccccc1)CC31CCN(C(=O)Cc2ccccc2)CC1,"HEp-2, uninfected",,original sample,60
CC(C)=CC[C@@H](O)C1=CC(=O)c2c(O)ccc(O)c2C1=O,RD,,"3 (unit not given), 33 °C, together with: MgCl2 30 mM",0.4
CN1c2ccc(-c3ccc(C#N)cc3)cc2[C@H]2[C@H](CCN2C(=O)c2cccc(F)c2)[C@@H]1CO,"HEp-2, uninfected",,original sample,29
CCC[C@H](NC(=O)[C@@H]1[C@H]2CCC[C@H]2CN1C(=O)[C@@H](NC(=O)[C@@H](NC(=O)c1cnccn1)C1CCCCC1)C(C)(C)C)C(=O)C(=O)NC1CC1,RD,,"3 (unit not given), 33 °C, together with: MgCl2 30 mM",48.8
CC(=NNC(=S)N1CCC1)c1ccccn1,HepG2 cells,cell viability,24 h,< 1.56
CC[C@H]1CN2CCc3cc(OC)c(OC)cc3[C@@H]2C[C@@H]1C[C@H]1NCCc2cc(O)c(OC)cc21,BHK-21,,24 (unit not given),18.4 ± 2.73
